Results of several laboratories.
Numbered parts are unrelated; each lists some results of a single study.

Set 1
Target: Hepatocyte nuclear factor 3-beta, forkhead domain (FOXA2, Homo sapiens, UniProt Q9Y261, residues 142-269)
Technique: protein-binding microarray
Molecule type: double-stranded DNA, one strand shown
Medium: in vitro
Tested at: not given
Setting: k-mer, scored over probes, only values ≥0.25
Reading: higher = stronger binding
Residues (chain): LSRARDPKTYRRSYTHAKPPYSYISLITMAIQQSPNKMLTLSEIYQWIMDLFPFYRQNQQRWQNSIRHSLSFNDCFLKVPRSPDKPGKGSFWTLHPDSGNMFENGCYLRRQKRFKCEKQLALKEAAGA
`ATAGGTTA` gave an E-score of 0.27.
`ACAAGCAA` gave an E-score of 0.264.
With `ATAGGTAA` the E-score was 0.268.
The E-score of `AAATAAAC` is reported as 0.346.
With `TTTACAAA` the E-score was 0.282.
For `ATACATGA`, the E-score was 0.334.
For `ATAGAATA`, the E-score was 0.334.
`GTCAAACA` has an E-score of 0.279.
The E-score of `AGTTACAA` is reported as 0.301.
`ACCAATAT` gave an E-score of 0.272.
For `TAAACTAA`, the E-score was 0.269.
With `CAAATATA` the E-score was 0.352.
For `TACAATAA`, the E-score was 0.288.
With `CTTACTAC` the E-score was 0.269.
With `TAGTATAA` the E-score was 0.295.
`AATTAGTA` gave an E-score of 0.282.

Set 2
Target: Histone acetyltransferase KAT6A, both winged helices, GST fusion (KAT6A, Homo sapiens, UniProt Q92794, residues 1-181)
Technique: protein binding microarray
Molecule type: double-stranded DNA, one strand shown
Medium: in vitro
Tested at: not given
Setting: 8-mer, flanks averaged, mean of 2 arrays, mostly near background
Reference: not given
Reading: higher = stronger binding
Target sequence (chain): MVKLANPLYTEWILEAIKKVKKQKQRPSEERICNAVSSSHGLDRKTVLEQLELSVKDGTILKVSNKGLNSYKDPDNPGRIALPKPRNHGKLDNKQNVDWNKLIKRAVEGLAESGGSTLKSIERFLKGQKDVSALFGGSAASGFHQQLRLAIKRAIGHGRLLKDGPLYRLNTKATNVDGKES
`AACCAGTC` gave an E-score of 0.0389.
`CAAAATTG` gave an E-score of -0.201.
`TATTTGCA` gave an E-score of -0.217.
`AACCCCAC` gave an E-score of -0.149.
With `CCACTTCC` the E-score was -0.0861.
`CTTGGTGA` gave an E-score of -0.107.
With `GTCTGATA` the E-score was 0.0336.
For `ACTCAGCG`, the E-score was 0.103.
For `CGCCGTAA`, the E-score was 0.339.
With `CTAGAGCC` the E-score was -0.00654.
For `GTAGCAAC`, the E-score was -0.0293.
With `ATATCGTG` the E-score was 0.0281.
The E-score of `CAAAACAG` is reported as -0.169.
`CAGCCTAC` has an E-score of -0.064.
The E-score of `ATACGGAT` is reported as 0.0829.
With `CGGAGCCC` the E-score was -0.0174.

Set 3
Target: RNA binding protein fox-1 homolog 2, RRM domain, GST-SBP tag (RBFOX2, Homo sapiens, UniProt O43251-10, residues 100-194)
Technique: RNA Bind-n-Seq
Molecule type: RNA
Medium: in vitro
Tested at: 365 nM
Setting: natural RNA segment, single round, ends assumed
Reference: no-protein control
Reading: higher = stronger binding
Shared flanks, not repeated: GGGAGUUCUACAGUCCGACGAUC … UGGAAUUCUCGGGUGCCAA
Construct (chain): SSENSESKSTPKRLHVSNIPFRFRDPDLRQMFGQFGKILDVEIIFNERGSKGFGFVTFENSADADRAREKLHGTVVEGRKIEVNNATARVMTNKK
`GGAAGCAGAUGUACAUACUACAUACAUGUCACAUACUACAUACAUGUCAUGUACUACACACAUGUCAUAUAGUACAUACAUGUCAUGUCCAUUUAACGACUGGUCACCUG` — result for “RBNS enrichment (R)”: 0.226.
`CCCUUCACCUCGCACUUACUGCCUGGGAACCACGGCCCUUCUCUUCUGUGGGUCUGUACCAGGUACUCCAGGCCAGCCCAUGGGCCCGGGGCCUGACCCCAACACCUGCA`: “RBNS enrichment (R)” 2.02.
`UCUCUGGCUGGCCGCCUGCGUCCCAGAGCACCAGAGUCCCUUCCCGACAGGCUAGGGUUAGGCAAUGUACCACAGGCCUGAUAGUCCCUGGCUCCUAGCUGCCCAUAGGC`: “RBNS enrichment (R)” 0.579.
`UCCCCACGGAUCCACCAGGAUUGAAGGAGCUUCGGACCCAUGCCGCCUUCUUUUCCCACGCCUCUAACUUAAUGUUUUAUAUUUGAAUUGUGUGGCUCAAGGGUCAUGUA` — result for “RBNS enrichment (R)”: 0.263.
`GCCCUGACAUGGCCUGGAGACAUUUUCCCCAUGGUGUUGGGGAUUAACAUUAGGCUCCUUGCUACUUAUGCAAAUUUCUGCAGCUGGCUUGAAUUUCUCCCCAGAAAAUG`: “RBNS enrichment (R)” 0.589.
`AGAAUGGGAAUAUAUGUGUGCCUCCCAACAUUUACUGUUAAAGUGUGUUAUCUUUAUAUGUCAAACUGGUUGAACACUGUAAUGAGAAUAAACUGCACAGAGUUUAUUCU` — result for “RBNS enrichment (R)”: 0.856.
For `GUCCUCCGAGGACCGGAACACGUUUCUGCGACCCGGGGCUCUGGCCAGCACUGUGUUCUGCGUUUGGUCUCAUACCUGCGUCUACCUUCCAUCUGUGUCCAGCGGCCCCG`, “RBNS enrichment (R)” read 0.24.
For `AACAUCCCUGUACCCCUUGACAGUUAUAAGCAUUUCUGCGUUAAACUUGAAGAUUCCAGAGAUUCCCCACGACCUAAUGAUCUAAGAAUGCAGAUUGGAUUCUUUGAUGU`, “RBNS enrichment (R)” read 0.899.
`AUGAAGUCGGUGUUACAUAAAAGUAGGUGAUAUGUAAGUUUUCUGAUAACAAGGUUCUAAUAGUGUUUAAAUGUACUGGUAACCUGGUUCCAAUAGUUGUGUUUGCCCAA`: “RBNS enrichment (R)” 2.38.
`CACUCUUCUGACUUGGUUUCUCCAAAUGGGAGGAGACCCAGCUCUGGACAGAAAGGGGACCCGACUGCUUUGGACCUAGAUGGCCUAUUGCGGCUGGAGGAUCCUGAGGA` — result for “RBNS enrichment (R)”: 0.29.
For `CUCAGUUUUUAUGAACUGUUGUAUCCUGUUAAUGCAUAUUGCUCUGUGACUCCAGUAUAUCUUACCUGUACUGACCAAACCUAAAUAAAGAUUUUUAUUGUAACUCCUUA`, “RBNS enrichment (R)” read 1.92.
`GUCUUGAAGGUGUUCCCCACCCCGCCCAGGGGCUUGCACUUGGAGGACUACAGCACACCUGGUUUCCUUUCUUUCUGCCACAGAUCCUUCACAGACGAGAGACUGUUGUC`: “RBNS enrichment (R)” 0.51.

Set 4
Target: RING finger protein unkempt homolog, zinc fingers 1-6, GST-SBP tag (UNK, Homo sapiens, UniProt Q9C0B0, residues 30-357)
UniProt Q9C0B0, sequence (30-357, looked up): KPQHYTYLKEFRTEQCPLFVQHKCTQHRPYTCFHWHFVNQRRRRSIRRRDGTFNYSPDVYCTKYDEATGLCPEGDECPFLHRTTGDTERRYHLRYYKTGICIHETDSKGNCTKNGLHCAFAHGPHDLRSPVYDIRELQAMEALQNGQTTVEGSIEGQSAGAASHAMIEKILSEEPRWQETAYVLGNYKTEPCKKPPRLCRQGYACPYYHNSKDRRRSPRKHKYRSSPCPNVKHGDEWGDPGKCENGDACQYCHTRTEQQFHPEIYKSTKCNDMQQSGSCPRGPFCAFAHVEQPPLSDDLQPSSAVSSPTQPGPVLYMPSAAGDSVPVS
Technique: RNA Bind-n-Seq
Molecule type: RNA
Medium: in vitro
Tested at: not given
Setting: RNA with constant flanks, human and mouse sites, ends assumed
Reference: input RNA pool
Reading: higher = stronger binding
Shared flanks, not repeated: GGGAGUUCUACAGUCCGACGAUC … CAACAGAGGAUUGAGCAUCA
For `CCCAAGCACUGUAGAGGAAGCUGUGCUCGCCUUAGAGCAUUUUUUUUCUUGCGUUUUGGUUUUAGGGGUGGGUGGGUUGUGGCACACACCUCUGAGGCCAGAGCCAUCGGGUUCACCCUC`, the bound/input enrichment was 0.549 ratio.
With `AUUAAAGUUUUUCAAAUCUGUAAACAAAGCAAAAAAGUAAAUUGUAGUCAUUUGAUUAUUUUUUAAAUUGGUGCUUUAUAUUUUGUUCUCACUCAGAGUAAAAGCUGCAAUUUAUUGUUC` the bound/input enrichment was 0.563 ratio.
With `GCUGCCUCUGCCAGUGCUGAAUUCUUUGCUGACAUUGCCCUGGCUCCUAUGGAAGCUGCUAAGGUUCGAAUUCAAACCCAGCCAGGUUAUGCCAACACUUUGAGGGAUGCAGCUCCCAAA` the bound/input enrichment was 0.122 ratio.
The bound/input enrichment of `CGAGCUGGAUCCAGAGUUGCAUAUAGACCAAUUUCUGCAUCAGUGUUAUCUCGGCCAGAGACUAGGACUGGAGAGGGCUCUACAGUUUUUAAUGGGGCCCAGAAUGGUGUGUGUCAGCUG` is reported as 0.163 ratio.
`UAAGGGUGAUGCUUUAUUGCGGUUCUGAGACUUGAAAACUAUUGGUAUUUUUUAUCUCUUUUGUUCAUGACAAGCGUAUAUAACAUGUAUUAAUAUUUUCUUAGUCUAGGUACUUACUGU` has a bound/input enrichment of 0.569 ratio.
The bound/input enrichment of `AUUGUUAUAAAGGACAUAGUUGGUAUACAUUUUCUGCUUCCAACUCAGCUUUGGUGCGAAUCGAGUGAAACUAGAUAUUGAAUAAGACUUGUCAAUAUCAAACGAUUUUUUUGCUGACUG` is reported as 0.137 ratio.
`GUGGCUGACAUCUCUGUUGCUAAAAUCGAUCCUUCGGCCCCUUUGGAUAAAGUCUGCCUUCUCGGCUGUGGUAUUUCAACUGGCUACGGGGCUGCUGUGAACACUGCCAAGGUGGAGCCU` gave a bound/input enrichment of 0.158 ratio.
The bound/input enrichment of `UCCGGGGGCGGCACCGCCAGAAAACUGAUUGGGAGGUAGCUAUUAAAAGUAUUAAUAAAAAGAACUUGUCAAAAUCACAAAUACUGCUUGGAAAGGAAAUUAAAAUCUUAAAGGAACUUC` is reported as 0.57 ratio.
For `CUCCCACGUGCUUCCCCUUCUCCACUGGCUGGGAUCCCCCGGGCUCGGGGCGCAGUAAUAAUUUUUCACCAUGCAUCGGAAAAAGGUGGAUAACCGAAUCCGGAUUCUCAUUGAGAAUGG`, the bound/input enrichment was 0.324 ratio.
The bound/input enrichment of `GUCAGAUUUGAAAAUGCAGAUUUAAAUGAUACAUCAAGAAAUCUGGAAUUUCAUGAAAUACAUAGUACUGGGAAUGAACCGCCUUUGUUGAUUAUGAUUGGCUACAGUGAUGGAAUGCAG` is reported as 0.638 ratio.
With `ACUGGAGUUGUGCACAGCACCGCAGCUAGUGGGCCUGGCUGGGGGUGCAGAAGGGCAGGGUAGUUCUUUCCAUUUCCCCUUGCAGCUACACUUACUUUCUCCCUGACUACCAAAUGGAGU` the bound/input enrichment was 0.249 ratio.

Set 5
Target: Prothrombin, mature alpha-thrombin (F2, Homo sapiens, UniProt P00734)
Technique: aptamer microarray, sandwich
Molecule type: DNA with 2'F-ANA
Medium: in vitro
Tested at: 200 nM
Setting: whole 15-mer aptamer, many near background
With: Cy3 exosite-II aptamer, 400 nM
Reading: higher = stronger binding
Oligonucleotide: GGTTGGTGTGGTTGG
`2'F-ANA at 2 5 10 11 12 14 15`: “mean fluorescence intensity” 54.3 a.u.
`2'F-ANA at 2 3 4 11 12 13 14`: “mean fluorescence intensity” 303 a.u.
Under “mean fluorescence intensity”, `2'F-ANA at 1 4 8 14` is recorded as 52.8 a.u.
For `2'F-ANA at 2 5 7 9 15`, “mean fluorescence intensity” read 68 a.u.
`2'F-ANA at 3 5 8 9 10 12` — result for “mean fluorescence intensity”: 89.5 a.u.
`2'F-ANA at 2 4 5 7 8 9 10 12 14 15` — result for “mean fluorescence intensity”: 44.6 a.u.
Under “mean fluorescence intensity”, `2'F-ANA at 2 3 6 7 10 11 13` is recorded as 296 a.u.
For `2'F-ANA at 1 3 4 6 7 10 13 14`, “mean fluorescence intensity” read 96.2 a.u.
`2'F-ANA at 1 2 3 6 8 14`: “mean fluorescence intensity” 73.9 a.u.
For `2'F-ANA at 2 4 5 12 13 14 15`, “mean fluorescence intensity” read 47.8 a.u.
`2'F-ANA at 2 7 8 11 13 14`: “mean fluorescence intensity” 168 a.u.
Under “mean fluorescence intensity”, `2'F-ANA at 1 2 4 5 6 8 9 12 13 14` is recorded as 48.5 a.u.
`2'F-ANA at 6 7 9 15` — result for “mean fluorescence intensity”: 443 a.u.
`2'F-ANA at 1 4 5 6 7 8 9 12 13` — result for “mean fluorescence intensity”: 77.7 a.u.
`2'F-ANA at 1 2 3 4 5 6 7 8 9 15`: “mean fluorescence intensity” 70.1 a.u.
For `2'F-ANA at 2 3 7 8 10 11 12 15`, “mean fluorescence intensity” read 384 a.u.

A few entries again (set 5):
`2'F-ANA at 3 5 8 9 10 12` — result for “mean fluorescence intensity”: 89.5 a.u.
`2'F-ANA at 2 4 5 7 8 9 10 12 14 15` — result for “mean fluorescence intensity”: 44.6 a.u.
Under “mean fluorescence intensity”, `2'F-ANA at 2 3 6 7 10 11 13` is recorded as 296 a.u.
For `2'F-ANA at 1 3 4 6 7 10 13 14`, “mean fluorescence intensity” read 96.2 a.u.
`2'F-ANA at 1 2 3 6 8 14`: “mean fluorescence intensity” 73.9 a.u.
For `2'F-ANA at 2 4 5 12 13 14 15`, “mean fluorescence intensity” read 47.8 a.u.
`2'F-ANA at 2 7 8 11 13 14`: “mean fluorescence intensity” 168 a.u.
Under “mean fluorescence intensity”, `2'F-ANA at 1 2 4 5 6 8 9 12 13 14` is recorded as 48.5 a.u.
`2'F-ANA at 6 7 9 15` — result for “mean fluorescence intensity”: 443 a.u.
`2'F-ANA at 1 4 5 6 7 8 9 12 13` — result for “mean fluorescence intensity”: 77.7 a.u.
